{"data": "Experimental data of several laboratories", "OPRD1": "Delta-type opioid receptor (OPRD1, Homo sapiens, UniProt P41143)", "note": "Compare with care: the assays were run in different laboratories. Numbers after ± are the reported error.", "sequence of UniProt P41143 (whole entry, looked up)": "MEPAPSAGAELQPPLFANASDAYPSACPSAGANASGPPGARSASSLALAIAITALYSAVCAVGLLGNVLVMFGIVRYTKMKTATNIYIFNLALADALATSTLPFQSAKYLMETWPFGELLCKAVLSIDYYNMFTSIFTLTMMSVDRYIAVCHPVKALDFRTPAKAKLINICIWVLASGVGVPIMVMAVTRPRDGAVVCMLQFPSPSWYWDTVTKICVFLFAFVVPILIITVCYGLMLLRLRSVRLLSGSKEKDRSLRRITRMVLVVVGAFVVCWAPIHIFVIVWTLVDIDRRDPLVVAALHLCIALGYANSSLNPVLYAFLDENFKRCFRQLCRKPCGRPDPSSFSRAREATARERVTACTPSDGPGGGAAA"}
{"SMILES": "Oc1cccc(CCN(CCc2ccccc2)CC2CCCC2)c1", "target": "OPRD1", "assay": "ligand displacement, radioligand", "conditions": "cell membranes", "measurement": "Ki", "result": "1700 nM"}
{"SMILES": "N[C@@H](Cc1ccc(C(=O)NCCc2c[nH]c3ccccc23)cc1)C(=O)N1Cc2ccccc2C[C@H]1C(=O)N[C@@H](Cc1ccccc1)C(=O)N[C@@H](Cc1ccccc1)C(=O)O", "target": "OPRD1", "assay": "GTPγS binding, agonist, radiometric", "measurement": "EC50", "result": "7.08 nM"}
{"SMILES": "C[C@@H](NC(=O)[C@@H](N)Cc1ccc(O)cc1)C(=O)NCC(=O)N[C@@H](Cc1ccc(F)cc1)C(=O)Nc1ccccc1NC(=O)[C@H](Cc1ccc(F)cc1)NC(=O)CNC(=O)[C@@H](C)NC(=O)[C@@H](N)Cc1ccc(O)cc1", "target": "OPRD1", "assay": "GTPγS binding, agonist", "conditions": "cell membranes", "measurement": "EC50", "result": "0.56 nM"}
{"SMILES": "N=C(N)NCCCCCCCN1CC[C@]23c4c5ccc(O)c4O[C@H]2c2nc4ccccc4cc2C[C@@]3(O)[C@H]1C5", "target": "Delta-type opioid receptor, with β-arrestin1 (OPRD1, Homo sapiens, UniProt P41143)", "system": "human cells", "measurement": "EC50", "result": "600 nM"}
{"SMILES": "CCCCCCNC(=O)c1ccc(C[C@H](N)C(=O)N2Cc3ccccc3C[C@H]2C(=O)N[C@@H](Cc2ccccc2)C(=O)N[C@@H](Cc2ccccc2)C(=O)O)cc1", "target": "OPRD1", "assay": "GTPγS binding, agonist, radiometric", "measurement": "EC50", "result": "0.103 nM"}
{"SMILES": "CCC(=O)N(CC1CCCCN1C(=O)[C@H](Cc1ccccc1)NC(=O)CNC(=O)[C@@H](C)NC(=O)[C@@H](N)Cc1ccc(O)cc1)c1ccccc1 (stereo partly shown)", "target": "OPRD1", "assay": "cell-free assay", "measurement": "Ki", "result": "2 nM"}
{"SMILES": "NCCCCCCCCN1CCC23c4c5ccc(O)c4OC2c2nc4ccccc4cc2CC3(O)C1C5 (stereo not shown)", "target": "Delta-type opioid receptor, with β-arrestin2 (OPRD1, Homo sapiens, UniProt P41143)", "system": "human cells", "measurement": "EC50", "result": "170 nM"}
{"SMILES": "CC[C@H](C)[C@H](NC(=O)[C@@H](N)Cc1ccc(O)cc1)C(=O)N[C@@H](Cc1ccccc1)C(=O)N[C@@H](CC(N)=O)C(=O)N[C@@H](CC(C)C)C(=O)O", "target": "OPRD1", "assay": "radioligand binding, inhibitor", "system": "MCF7", "conditions": "together with: [3H]DPDPE or [3H]DSLET", "measurement": "IC50", "result": "3.25 ± 4.2e-10 nM"}
{"SMILES": "C[C@H]1[C@H]2CCC[C@]1(c1cccc(O)c1)CCN2CCc1ccccc1", "target": "OPRD1", "assay": "GTPγS binding, agonist, radiometric", "conditions": "cell membranes", "measurement": "EC50", "result": "1310 nM"}
{"SMILES": "CCCC[C@@H]1NC(=O)[C@H](Cc2ccccc2)NC(=O)CNC(=O)[C@H](NC(=O)[C@@H](N)Cc2ccc(O)cc2)C(C)(C)SSC(C)(C)[C@@H](C(=O)N[C@@H](Cc2c[nH]c3ccccc23)C(=O)NCc2cc(C(F)(F)F)cc(C(F)(F)F)c2)NC(=O)[C@@H]2CCCN2C1=O", "target": "OPRD1", "assay": "ligand displacement, radioligand", "conditions": "cell membranes", "measurement": "IC50", "result": "316 nM"}
{"SMILES": "CC(C)[C@H]1CC[C@@H](N2CC[C@@](C)(c3cccc(O)c3)[C@@H](C)C2)CC1", "target": "OPRD1", "assay": "ligand displacement, radioligand", "measurement": "Ki", "result": "586 nM"}
{"SMILES": "CCCCCCCCCCNC(=O)c1ccc(C[C@H](N)C(=O)N2Cc3ccccc3C[C@H]2C(=O)N[C@@H](Cc2ccccc2)C(=O)N[C@@H](Cc2ccccc2)C(=O)O)cc1", "target": "OPRD1", "assay": "GTPγS binding, agonist, radiometric", "measurement": "EC50", "result": "0.239 nM"}
{"SMILES": "C[C@@H](NC(=O)[C@@H](N)Cc1ccc(O)cc1)C(=O)NCC(=O)N[C@@H](Cc1ccc(F)cc1)C(=O)N1CCN(C(=O)[C@H](Cc2ccc(F)cc2)NC(=O)CNC(=O)[C@@H](C)NC(=O)[C@@H](N)Cc2ccc(O)cc2)CC1", "target": "OPRD1", "assay": "ligand displacement, radioligand", "conditions": "cell membranes", "measurement": "Ki", "result": "0.09 nM"}
{"SMILES": "CC(C)C[C@H](NC(=O)[C@H](Cc1ccccc1)NC(=O)CNC(=O)CN(Cc1ccccc1[N+](=O)[O-])C(=O)[C@@H](N)Cc1ccc(O)cc1)C(=O)O", "target": "OPRD1", "assay": "reporter gene (SEAP), agonist", "system": "HEK-293T cells", "conditions": "caged form, no photolysis", "measurement": "EC50", "result": "1850 nM"}
{"SMILES": "CCC(=O)N(CC1CCCCN1C(=O)CCNC(=O)[C@H](Cc1ccccc1)NC(=O)CNC(=O)[C@@H](C)NC(=O)[C@@H](N)Cc1c(C)cc(O)cc1C)c1ccccc1 (stereo partly shown)", "target": "OPRD1", "assay": "cell-free assay", "measurement": "Ki", "result": "1.2 nM"}
{"SMILES": "C[C@@H](NC(=O)[C@@H](N)Cc1ccc(O)cc1)C(=O)NCC(=O)N[C@@H](Cc1ccccc1)C(=O)Nc1ccccc1NC(=O)[C@H](Cc1ccccc1)NC(=O)CNC(=O)[C@@H](C)NC(=O)[C@@H](N)Cc1ccc(O)cc1", "target": "OPRD1", "assay": "GTPγS binding, agonist", "conditions": "cell membranes", "measurement": "EC50", "result": "1.7 nM"}
{"note": "Excerpt of the above:"}
{"SMILES": "CCC(=O)N(CC1CCCCN1C(=O)CCNC(=O)[C@H](Cc1ccccc1)NC(=O)CNC(=O)[C@@H](C)NC(=O)[C@@H](N)Cc1c(C)cc(O)cc1C)c1ccccc1 (stereo partly shown)", "target": "OPRD1", "assay": "cell-free assay", "measurement": "Ki", "result": "1.2 nM"}
